Measurements gathered from unrelated publications.
Each numbered part is a random draw from the data of one study; scales do not carry over between parts.
UniProt Q9Y616, sequence (whole entry, looked up): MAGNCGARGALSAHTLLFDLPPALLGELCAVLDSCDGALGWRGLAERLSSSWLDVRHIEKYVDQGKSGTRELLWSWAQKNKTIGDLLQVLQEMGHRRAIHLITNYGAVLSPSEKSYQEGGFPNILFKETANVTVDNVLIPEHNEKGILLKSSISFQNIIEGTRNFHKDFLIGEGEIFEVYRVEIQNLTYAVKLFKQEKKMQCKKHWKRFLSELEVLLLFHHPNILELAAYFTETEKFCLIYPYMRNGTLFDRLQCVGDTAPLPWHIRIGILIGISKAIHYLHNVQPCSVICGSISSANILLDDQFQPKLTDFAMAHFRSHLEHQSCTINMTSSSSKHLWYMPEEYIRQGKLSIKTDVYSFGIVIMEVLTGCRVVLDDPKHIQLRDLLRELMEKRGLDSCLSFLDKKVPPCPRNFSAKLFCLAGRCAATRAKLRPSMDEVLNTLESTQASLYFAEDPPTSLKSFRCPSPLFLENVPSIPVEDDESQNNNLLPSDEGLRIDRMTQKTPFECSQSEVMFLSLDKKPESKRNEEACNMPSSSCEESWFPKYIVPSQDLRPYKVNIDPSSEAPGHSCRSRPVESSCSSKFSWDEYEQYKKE
UniProt P52333, sequence (whole entry, looked up): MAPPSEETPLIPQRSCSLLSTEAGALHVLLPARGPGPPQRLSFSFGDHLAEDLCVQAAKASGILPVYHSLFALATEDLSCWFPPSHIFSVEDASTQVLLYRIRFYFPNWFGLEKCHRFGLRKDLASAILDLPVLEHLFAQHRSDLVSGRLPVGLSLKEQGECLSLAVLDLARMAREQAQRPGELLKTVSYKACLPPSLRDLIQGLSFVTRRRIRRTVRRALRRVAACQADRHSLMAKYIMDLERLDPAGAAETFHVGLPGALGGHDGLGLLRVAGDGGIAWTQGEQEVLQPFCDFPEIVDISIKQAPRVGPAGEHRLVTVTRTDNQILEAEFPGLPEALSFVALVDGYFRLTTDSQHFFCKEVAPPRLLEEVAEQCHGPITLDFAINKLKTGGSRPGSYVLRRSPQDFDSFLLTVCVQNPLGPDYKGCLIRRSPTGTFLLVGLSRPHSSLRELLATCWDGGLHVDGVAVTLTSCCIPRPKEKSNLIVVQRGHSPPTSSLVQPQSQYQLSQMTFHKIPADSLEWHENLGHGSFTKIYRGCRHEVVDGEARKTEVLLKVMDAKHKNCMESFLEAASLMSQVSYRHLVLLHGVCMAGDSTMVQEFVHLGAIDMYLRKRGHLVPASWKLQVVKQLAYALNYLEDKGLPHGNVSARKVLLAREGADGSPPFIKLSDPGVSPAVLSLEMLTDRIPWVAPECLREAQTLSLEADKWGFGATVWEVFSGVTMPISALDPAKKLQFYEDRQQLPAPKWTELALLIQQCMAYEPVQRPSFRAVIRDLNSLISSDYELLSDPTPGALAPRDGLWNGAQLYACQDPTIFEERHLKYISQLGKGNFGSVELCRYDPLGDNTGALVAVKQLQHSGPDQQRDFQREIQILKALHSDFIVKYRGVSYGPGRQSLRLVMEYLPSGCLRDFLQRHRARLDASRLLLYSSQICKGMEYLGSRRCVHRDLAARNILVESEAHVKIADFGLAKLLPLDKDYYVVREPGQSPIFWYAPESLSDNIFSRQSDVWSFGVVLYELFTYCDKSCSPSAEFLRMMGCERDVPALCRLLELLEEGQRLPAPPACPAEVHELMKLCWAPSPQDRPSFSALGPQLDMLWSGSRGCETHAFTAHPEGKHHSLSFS
UniProt P14616, sequence (whole entry, looked up): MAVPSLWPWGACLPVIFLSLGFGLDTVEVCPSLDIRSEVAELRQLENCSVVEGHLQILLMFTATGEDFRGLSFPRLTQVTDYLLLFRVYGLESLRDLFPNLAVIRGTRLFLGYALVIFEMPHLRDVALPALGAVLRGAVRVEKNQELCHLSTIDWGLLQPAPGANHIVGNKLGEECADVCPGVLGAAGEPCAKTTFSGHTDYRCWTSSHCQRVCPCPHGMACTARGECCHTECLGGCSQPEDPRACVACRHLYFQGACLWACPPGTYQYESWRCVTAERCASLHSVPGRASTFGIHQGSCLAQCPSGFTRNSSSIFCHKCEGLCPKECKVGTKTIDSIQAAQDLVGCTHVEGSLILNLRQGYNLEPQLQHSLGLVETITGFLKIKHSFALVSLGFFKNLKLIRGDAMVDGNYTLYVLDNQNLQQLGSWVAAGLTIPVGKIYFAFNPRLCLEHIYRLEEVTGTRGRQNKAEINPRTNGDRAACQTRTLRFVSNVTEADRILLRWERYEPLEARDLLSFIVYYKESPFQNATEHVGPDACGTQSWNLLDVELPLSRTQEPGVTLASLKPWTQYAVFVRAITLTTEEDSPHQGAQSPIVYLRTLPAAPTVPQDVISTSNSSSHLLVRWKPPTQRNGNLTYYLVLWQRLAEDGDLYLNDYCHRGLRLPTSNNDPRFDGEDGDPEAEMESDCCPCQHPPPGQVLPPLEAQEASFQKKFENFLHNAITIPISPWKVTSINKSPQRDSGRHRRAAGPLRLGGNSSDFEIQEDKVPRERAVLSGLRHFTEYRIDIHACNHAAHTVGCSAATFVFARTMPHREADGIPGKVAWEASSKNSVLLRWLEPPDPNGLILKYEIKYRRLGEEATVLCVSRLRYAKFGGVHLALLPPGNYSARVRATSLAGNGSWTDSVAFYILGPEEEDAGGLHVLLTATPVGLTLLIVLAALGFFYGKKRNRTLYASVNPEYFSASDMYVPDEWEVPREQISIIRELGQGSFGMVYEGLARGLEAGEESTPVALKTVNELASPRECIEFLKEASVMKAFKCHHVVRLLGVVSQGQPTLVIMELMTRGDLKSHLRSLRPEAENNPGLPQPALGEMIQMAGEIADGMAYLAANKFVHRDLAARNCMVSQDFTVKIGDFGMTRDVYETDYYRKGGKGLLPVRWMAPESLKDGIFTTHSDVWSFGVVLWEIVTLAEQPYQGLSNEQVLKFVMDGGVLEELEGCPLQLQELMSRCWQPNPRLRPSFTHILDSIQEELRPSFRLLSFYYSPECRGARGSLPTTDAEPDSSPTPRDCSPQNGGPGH
UniProt Q13557, sequence (whole entry, looked up): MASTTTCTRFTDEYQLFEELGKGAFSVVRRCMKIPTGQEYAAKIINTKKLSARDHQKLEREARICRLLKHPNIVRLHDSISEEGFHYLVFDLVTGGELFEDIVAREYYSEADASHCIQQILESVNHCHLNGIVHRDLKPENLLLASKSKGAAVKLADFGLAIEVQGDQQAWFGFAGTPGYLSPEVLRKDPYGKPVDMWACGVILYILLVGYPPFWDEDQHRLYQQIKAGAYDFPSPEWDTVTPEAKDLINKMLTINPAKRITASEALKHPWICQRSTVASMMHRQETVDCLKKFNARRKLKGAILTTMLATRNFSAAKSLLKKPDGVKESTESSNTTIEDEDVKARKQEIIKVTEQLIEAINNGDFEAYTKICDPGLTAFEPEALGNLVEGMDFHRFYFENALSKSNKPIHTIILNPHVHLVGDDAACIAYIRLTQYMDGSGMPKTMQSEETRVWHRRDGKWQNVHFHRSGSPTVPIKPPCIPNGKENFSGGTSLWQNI

Study 1
SMILES: COc1ccc2c(O[C@@H]3C[C@H]4C(=O)N[C@]5(C(=O)O)CC5/C=C\CCCCC[C@H](NC(=O)OC5CCCC5)C(=O)N4C3)cc(-c3csc(NC(=O)C(C)C)n3)nc2c1C (some centres unmarked)
Technique: competition with immobilised ligand
Tested at: 1 µM
For Tyrosine-protein kinase JAK3, JH1 (JAK3, Homo sapiens, UniProt P52333); cell-free assay: remaining binding read 88%.
For Epidermal growth factor receptor (EGFR, Homo sapiens, UniProt P00533, L858R/T790M); cell-free assay: remaining binding read 100%.
It gave 100% for remaining binding (Calcium/calmodulin-dependent protein kinase type 1 (CAMK1, Homo sapiens, UniProt Q14012); cell-free assay).
It gave 87% for remaining binding (Tyrosine-protein kinase ABL1, phosphorylated (ABL1, Homo sapiens, UniProt P00519, Y253F); cell-free assay).
The remaining binding was 95% (Insulin receptor-related protein (INSRR, Homo sapiens, UniProt P14616); cell-free assay).
The remaining binding was 93% (Serine/threonine-protein kinase Nek4 (NEK4, Homo sapiens, UniProt P51957); cell-free assay).
For Calcium/calmodulin-dependent protein kinase type II subunit delta (CAMK2D, Homo sapiens, UniProt Q13557); cell-free assay: remaining binding read 100%.
The remaining binding was 94% (Platelet-derived growth factor receptor beta (PDGFRB, Homo sapiens, UniProt P09619); cell-free assay).
It gave 99% for remaining binding (Cyclin-dependent kinase 11A (CDK11A, Homo sapiens, UniProt Q9UQ88); binding).
Interleukin-1 receptor-associated kinase 3 (IRAK3, Homo sapiens, UniProt Q9Y616); cell-free assay — remaining binding: 97%.

Study 2
Target: Calcium/calmodulin-dependent protein kinase type II subunit alpha (CAMK2A, Homo sapiens, UniProt Q9UQM7)
UniProt Q9UQM7, sequence (whole entry, looked up): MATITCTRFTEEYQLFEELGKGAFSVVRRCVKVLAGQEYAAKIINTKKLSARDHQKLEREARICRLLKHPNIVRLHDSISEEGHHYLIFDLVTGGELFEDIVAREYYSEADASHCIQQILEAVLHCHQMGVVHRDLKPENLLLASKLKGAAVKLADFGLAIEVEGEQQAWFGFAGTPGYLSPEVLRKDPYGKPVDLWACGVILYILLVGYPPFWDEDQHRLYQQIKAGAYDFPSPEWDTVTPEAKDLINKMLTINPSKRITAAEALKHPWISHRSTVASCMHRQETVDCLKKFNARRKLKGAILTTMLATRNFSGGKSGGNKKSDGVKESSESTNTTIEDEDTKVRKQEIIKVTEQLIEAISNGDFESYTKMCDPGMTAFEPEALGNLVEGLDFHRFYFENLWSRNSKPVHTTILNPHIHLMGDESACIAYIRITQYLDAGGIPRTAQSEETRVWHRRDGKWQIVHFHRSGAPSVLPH
Read-out: enzyme activity
Action: inhibitor
Tested at: 10 µM
`O=c1cc(-c2ccc(O)cc2)oc2c([C@@H]3O[C@H](CO)[C@@H](O)[C@H](O)[C@H]3O)c(O)c([C@@H]3OC[C@H](O)[C@H](O)[C@H]3O)c(O)c12` gave an inhibition of -19%.
`CC1(C)OC[C@@H](COC(=O)CCc2ccc(OC[C@@H](O)CNCCNC(=O)N3CCOCC3)cc2)O1` gave an inhibition of -14%.
The inhibition of `CCCOC(=O)c1ccc(O)cc1` is reported as -47%.
`O=C(/C=C/c1ccc(O)c(O)c1)O[C@@H]1C[C@](OC(=O)/C=C/c2ccc(O)c(O)c2)(C(=O)O)C[C@@H](O)[C@H]1O` has an inhibition of 0%.
`C[C@@H]1O[C@@H](OC[C@H]2O[C@@H](OCCc3ccc(O)c(O)c3)[C@H](O)[C@@H](O)[C@@H]2O)[C@H](O)[C@H](O)[C@H]1O` has an inhibition of -17%.
The inhibition of `CCCCCCC(O)C(=O)O` (centres unmarked) is reported as 12%.
The inhibition of `O=P(O)(O)OC(Cn1cncn1)(Cn1cncn1)c1ccc(F)cc1F` is reported as 0%.
For `CCCCCCCCCCCCCCCCCCCO`, the inhibition was -42%.
With `C=C(C(=O)c1c(OC)cc2c(c1OC)OCO2)c1ccccc1O` the inhibition was -33%.
For `CCCC(C)C(=O)O` (centres unmarked), the inhibition was 3%.

Study 3
Target: CRBN/Zinc finger protein Helios (Homo sapiens, UniProt Q96SW2+Q9UKS7)
UniProt Q96SW2, sequence (whole entry, looked up): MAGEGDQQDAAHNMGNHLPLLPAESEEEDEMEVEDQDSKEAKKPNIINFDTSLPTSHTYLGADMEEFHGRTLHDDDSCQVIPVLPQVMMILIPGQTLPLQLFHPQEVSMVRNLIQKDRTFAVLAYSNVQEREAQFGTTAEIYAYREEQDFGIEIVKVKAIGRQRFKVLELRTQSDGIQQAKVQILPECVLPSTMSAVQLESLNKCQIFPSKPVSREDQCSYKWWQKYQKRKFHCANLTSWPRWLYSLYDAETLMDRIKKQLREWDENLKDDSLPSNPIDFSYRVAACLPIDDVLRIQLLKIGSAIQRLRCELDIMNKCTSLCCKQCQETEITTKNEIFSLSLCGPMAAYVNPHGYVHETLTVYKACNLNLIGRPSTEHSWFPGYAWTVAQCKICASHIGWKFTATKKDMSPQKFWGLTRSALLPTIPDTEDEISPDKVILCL
UniProt Q9UKS7, sequence (whole entry, looked up): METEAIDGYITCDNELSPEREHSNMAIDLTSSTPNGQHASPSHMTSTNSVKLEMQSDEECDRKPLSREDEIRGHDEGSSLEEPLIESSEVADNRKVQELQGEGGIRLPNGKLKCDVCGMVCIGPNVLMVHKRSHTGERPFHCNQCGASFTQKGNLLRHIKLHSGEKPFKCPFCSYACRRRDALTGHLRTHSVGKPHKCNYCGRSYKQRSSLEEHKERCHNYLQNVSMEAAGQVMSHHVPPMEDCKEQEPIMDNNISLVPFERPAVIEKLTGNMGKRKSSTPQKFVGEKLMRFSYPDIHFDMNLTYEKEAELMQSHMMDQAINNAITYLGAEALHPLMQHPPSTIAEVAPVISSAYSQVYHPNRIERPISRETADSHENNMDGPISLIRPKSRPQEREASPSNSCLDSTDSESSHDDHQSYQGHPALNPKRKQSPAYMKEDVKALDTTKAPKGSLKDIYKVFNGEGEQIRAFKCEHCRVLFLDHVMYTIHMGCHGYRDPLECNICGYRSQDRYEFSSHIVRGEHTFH
Action: degrader
Technique: HiBiT
Cells: HEK293
Tested at: 3333.33 nM
With `O=C1CCC(N2Cc3c(ccc4c3OCC43CCC(Oc4ccccc4)CC3)C2=O)C(=O)N1` (centres unmarked) the protein remaining was 65.7%.
With `O=C1CCC(N2Cc3c(ccc4c3OCCC43CCN(Cc4ccccc4)CC3)C2=O)C(=O)N1` (centres unmarked) the protein remaining was 63.4%.
`O=C1CCC(N2Cc3c(ccc4c3OCC43CCC(Cc4ccccc4)CC3)C2=O)C(=O)N1` (centres unmarked) has a protein remaining of 88.8%.

Study 4
Target: Diamine acetyltransferase 1 (Homo sapiens, UniProt P21673)
Action: inhibitor
Tested at: 10 µM
Relative to: control
Residues (P21673 1-171): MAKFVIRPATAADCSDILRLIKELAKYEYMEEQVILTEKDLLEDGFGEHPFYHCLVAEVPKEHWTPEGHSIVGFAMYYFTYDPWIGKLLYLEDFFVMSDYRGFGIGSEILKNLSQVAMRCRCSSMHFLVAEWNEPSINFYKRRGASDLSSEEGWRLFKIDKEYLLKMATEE
`Cc1cc(O)c2c(c1)C(=O)c1cccc(O)c1C2=O` has a remaining activity of 93.4%.
For `Cc1c[nH]c(=O)[nH]c1=O`, the remaining activity was 98.1%.
For `O=C(O)c1ccccc1O`, the remaining activity was 103%.
For `O=C(O)c1ccc(O)cc1`, the remaining activity was 92.2%.
For `CC1(C)[C@@H](O[C@@H]2O[C@H](C(=O)O)[C@@H](O)[C@H](O)[C@H]2O)CC[C@]2(C)[C@H]3C(=O)C=C4[C@@H]5C[C@@](C)(C(=O)O)CC[C@]5(C)CC[C@@]4(C)[C@]3(C)CC[C@@H]12`, the remaining activity was 109%.
The remaining activity of `C=CCC1=C[C@]2(OC)C(=CC1=O)O[C@H](c1ccc(OC)c(OC)c1)[C@H]2C` is reported as 112%.
The remaining activity of `CC(=O)O[C@H]1[C@H](O[C@H]2CC[C@]34C[C@]35CC[C@]3(C)[C@@H]([C@@]6(C)CC[C@@H](C(C)(C)O)O6)[C@@H](O)C[C@@]3(C)[C@@H]5C[C@H](O[C@@H]3O[C@H](CO)[C@@H](O)[C@H](O)[C@H]3O)[C@H]4C2(C)C)OC[C@@H](O)[C@@H]1O` is reported as 99.8%.
With `CCCCCCCCO` the remaining activity was 104%.
With `C=C(C)[C@H]1CC[C@H](C)C[C@@H]1O` the remaining activity was 90.7%.
`CCOC(=O)/C=C/c1ccc(O)c(O)c1` has a remaining activity of 110%.
The remaining activity of `O=c1c(O)c(-c2cc(O)c(O)c(O)c2)oc2cc(O)cc(O)c12` is reported as 80.9%.
The remaining activity of `C[C@@H]1O[C@@H](O[C@@H]2C(=O)c3c(O)cc(O)cc3O[C@@H]2c2ccc(O)c(O)c2)[C@H](O)[C@H](O)[C@H]1O` is reported as 88.7%.

Some of these lines once more (study 4):
The remaining activity of `CC(=O)O[C@H]1[C@H](O[C@H]2CC[C@]34C[C@]35CC[C@]3(C)[C@@H]([C@@]6(C)CC[C@@H](C(C)(C)O)O6)[C@@H](O)C[C@@]3(C)[C@@H]5C[C@H](O[C@@H]3O[C@H](CO)[C@@H](O)[C@H](O)[C@H]3O)[C@H]4C2(C)C)OC[C@@H](O)[C@@H]1O` is reported as 99.8%.
With `CCCCCCCCO` the remaining activity was 104%.
With `C=C(C)[C@H]1CC[C@H](C)C[C@@H]1O` the remaining activity was 90.7%.
`CCOC(=O)/C=C/c1ccc(O)c(O)c1` has a remaining activity of 110%.
The remaining activity of `O=c1c(O)c(-c2cc(O)c(O)c(O)c2)oc2cc(O)cc(O)c12` is reported as 80.9%.
The remaining activity of `C[C@@H]1O[C@@H](O[C@@H]2C(=O)c3c(O)cc(O)cc3O[C@@H]2c2ccc(O)c(O)c2)[C@H](O)[C@H](O)[C@H]1O` is reported as 88.7%.
